Measurements of several laboratories.
Every numbered part comes from another study and shows a few of its results, in no order.
Chain of UniProt P49137 (whole entry, looked up): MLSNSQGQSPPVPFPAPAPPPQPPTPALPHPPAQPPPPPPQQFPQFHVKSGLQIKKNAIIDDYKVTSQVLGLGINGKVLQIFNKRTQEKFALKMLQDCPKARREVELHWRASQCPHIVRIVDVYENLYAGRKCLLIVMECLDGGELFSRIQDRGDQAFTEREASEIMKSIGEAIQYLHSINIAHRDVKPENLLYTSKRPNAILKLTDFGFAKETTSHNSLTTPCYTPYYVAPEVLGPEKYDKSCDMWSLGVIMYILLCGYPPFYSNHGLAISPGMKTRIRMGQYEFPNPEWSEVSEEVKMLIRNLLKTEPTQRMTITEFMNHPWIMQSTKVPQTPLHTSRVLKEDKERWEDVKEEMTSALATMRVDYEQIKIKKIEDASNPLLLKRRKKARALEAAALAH
Chain of UniProt Q9H422 (whole entry, looked up): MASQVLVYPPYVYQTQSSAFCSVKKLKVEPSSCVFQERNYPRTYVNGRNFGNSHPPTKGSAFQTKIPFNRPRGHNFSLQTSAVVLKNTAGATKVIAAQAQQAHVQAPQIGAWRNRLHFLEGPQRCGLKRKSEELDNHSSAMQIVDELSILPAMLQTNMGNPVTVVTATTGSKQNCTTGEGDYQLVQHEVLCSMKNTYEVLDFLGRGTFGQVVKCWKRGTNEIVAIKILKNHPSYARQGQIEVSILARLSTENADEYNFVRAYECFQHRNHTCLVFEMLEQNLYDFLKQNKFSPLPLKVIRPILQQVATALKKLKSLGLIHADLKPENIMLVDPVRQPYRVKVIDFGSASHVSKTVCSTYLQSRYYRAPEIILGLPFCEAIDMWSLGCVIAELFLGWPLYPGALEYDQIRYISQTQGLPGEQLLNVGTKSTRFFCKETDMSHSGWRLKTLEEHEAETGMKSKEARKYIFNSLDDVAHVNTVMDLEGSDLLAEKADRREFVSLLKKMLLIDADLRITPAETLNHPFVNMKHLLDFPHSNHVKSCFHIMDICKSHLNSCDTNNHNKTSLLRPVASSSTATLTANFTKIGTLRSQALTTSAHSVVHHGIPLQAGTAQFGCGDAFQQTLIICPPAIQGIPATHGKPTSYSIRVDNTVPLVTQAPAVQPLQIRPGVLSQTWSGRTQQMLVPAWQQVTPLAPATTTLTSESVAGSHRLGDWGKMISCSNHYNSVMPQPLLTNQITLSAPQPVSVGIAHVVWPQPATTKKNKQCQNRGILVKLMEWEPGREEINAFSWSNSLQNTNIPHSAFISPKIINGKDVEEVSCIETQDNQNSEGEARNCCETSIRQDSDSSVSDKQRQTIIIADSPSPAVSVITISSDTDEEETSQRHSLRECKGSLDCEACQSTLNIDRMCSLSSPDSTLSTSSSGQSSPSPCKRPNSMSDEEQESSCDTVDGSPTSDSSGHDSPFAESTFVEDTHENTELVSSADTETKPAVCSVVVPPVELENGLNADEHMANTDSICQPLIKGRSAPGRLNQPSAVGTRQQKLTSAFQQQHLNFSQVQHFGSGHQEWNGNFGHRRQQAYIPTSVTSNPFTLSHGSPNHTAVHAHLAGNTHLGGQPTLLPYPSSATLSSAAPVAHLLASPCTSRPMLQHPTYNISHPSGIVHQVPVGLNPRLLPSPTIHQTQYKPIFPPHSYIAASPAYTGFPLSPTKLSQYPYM
Chain of UniProt P14616 (whole entry, looked up): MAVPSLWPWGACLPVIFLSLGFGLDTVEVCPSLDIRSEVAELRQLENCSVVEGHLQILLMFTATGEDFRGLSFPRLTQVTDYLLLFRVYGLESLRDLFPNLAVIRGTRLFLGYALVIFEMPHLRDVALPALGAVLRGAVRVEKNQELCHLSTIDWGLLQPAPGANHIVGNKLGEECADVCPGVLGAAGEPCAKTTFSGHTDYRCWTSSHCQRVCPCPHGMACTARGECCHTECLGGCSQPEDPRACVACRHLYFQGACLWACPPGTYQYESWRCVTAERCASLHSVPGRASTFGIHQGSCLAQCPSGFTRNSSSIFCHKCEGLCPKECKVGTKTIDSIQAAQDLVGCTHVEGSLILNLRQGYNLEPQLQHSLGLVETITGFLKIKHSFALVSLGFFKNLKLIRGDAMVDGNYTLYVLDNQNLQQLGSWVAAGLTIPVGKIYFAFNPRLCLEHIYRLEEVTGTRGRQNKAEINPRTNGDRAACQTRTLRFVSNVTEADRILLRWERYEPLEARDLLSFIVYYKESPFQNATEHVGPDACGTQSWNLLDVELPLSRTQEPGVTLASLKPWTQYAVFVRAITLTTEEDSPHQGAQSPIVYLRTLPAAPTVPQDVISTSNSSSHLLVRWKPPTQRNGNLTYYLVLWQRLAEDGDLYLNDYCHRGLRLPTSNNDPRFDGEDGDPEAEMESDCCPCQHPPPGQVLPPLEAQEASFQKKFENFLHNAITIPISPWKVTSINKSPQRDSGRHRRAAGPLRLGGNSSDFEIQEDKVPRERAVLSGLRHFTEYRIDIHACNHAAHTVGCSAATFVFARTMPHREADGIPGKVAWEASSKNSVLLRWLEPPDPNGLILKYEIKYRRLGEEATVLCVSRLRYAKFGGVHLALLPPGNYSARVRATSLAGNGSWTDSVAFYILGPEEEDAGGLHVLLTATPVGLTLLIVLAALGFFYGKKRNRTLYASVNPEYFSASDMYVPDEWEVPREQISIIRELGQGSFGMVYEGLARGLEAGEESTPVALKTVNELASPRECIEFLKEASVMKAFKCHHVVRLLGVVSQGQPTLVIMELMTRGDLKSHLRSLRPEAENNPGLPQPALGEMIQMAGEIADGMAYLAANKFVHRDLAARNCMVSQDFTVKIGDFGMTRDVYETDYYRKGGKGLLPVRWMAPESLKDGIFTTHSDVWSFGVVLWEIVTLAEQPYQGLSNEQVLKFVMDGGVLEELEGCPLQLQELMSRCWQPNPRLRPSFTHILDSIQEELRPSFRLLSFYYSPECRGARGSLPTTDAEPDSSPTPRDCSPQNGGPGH
Chain of UniProt O94921 (whole entry, looked up): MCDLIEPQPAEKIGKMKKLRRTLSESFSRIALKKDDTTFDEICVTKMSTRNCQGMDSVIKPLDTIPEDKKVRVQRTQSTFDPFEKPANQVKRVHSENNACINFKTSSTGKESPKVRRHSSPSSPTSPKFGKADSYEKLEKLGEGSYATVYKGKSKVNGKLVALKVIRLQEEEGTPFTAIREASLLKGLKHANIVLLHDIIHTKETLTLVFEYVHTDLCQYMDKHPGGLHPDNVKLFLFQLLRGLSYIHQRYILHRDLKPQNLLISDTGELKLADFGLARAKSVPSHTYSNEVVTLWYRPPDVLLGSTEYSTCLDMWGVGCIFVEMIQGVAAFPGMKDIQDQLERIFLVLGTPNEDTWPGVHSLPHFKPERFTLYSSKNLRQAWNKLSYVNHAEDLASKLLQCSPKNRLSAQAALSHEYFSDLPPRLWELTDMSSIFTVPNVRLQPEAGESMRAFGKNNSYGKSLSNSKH
Chain of UniProt P07333 (whole entry, looked up): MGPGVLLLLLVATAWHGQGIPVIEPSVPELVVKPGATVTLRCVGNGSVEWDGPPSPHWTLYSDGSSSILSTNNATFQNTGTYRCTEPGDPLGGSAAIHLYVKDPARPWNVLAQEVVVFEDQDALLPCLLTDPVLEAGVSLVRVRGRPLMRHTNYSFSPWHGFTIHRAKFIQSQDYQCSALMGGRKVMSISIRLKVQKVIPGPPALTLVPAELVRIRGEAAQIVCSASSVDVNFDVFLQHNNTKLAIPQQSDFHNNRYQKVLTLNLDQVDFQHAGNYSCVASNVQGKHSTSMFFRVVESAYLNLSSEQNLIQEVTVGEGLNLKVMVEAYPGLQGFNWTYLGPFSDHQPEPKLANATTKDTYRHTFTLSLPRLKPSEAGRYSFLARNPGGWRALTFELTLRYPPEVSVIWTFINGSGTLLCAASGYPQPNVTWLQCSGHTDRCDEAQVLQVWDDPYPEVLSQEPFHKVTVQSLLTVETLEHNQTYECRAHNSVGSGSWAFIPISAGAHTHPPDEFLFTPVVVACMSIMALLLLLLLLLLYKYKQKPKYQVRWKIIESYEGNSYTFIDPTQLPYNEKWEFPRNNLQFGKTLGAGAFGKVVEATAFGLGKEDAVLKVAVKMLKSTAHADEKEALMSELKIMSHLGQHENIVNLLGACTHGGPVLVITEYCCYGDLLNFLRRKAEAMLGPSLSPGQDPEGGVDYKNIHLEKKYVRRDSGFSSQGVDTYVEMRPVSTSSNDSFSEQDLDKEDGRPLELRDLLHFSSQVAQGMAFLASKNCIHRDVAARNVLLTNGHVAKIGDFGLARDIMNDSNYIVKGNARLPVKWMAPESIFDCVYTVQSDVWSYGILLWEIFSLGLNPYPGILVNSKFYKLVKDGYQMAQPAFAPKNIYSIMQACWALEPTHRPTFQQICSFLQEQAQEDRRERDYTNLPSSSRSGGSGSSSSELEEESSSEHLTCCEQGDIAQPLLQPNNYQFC
Chain of UniProt P51617 (whole entry, looked up): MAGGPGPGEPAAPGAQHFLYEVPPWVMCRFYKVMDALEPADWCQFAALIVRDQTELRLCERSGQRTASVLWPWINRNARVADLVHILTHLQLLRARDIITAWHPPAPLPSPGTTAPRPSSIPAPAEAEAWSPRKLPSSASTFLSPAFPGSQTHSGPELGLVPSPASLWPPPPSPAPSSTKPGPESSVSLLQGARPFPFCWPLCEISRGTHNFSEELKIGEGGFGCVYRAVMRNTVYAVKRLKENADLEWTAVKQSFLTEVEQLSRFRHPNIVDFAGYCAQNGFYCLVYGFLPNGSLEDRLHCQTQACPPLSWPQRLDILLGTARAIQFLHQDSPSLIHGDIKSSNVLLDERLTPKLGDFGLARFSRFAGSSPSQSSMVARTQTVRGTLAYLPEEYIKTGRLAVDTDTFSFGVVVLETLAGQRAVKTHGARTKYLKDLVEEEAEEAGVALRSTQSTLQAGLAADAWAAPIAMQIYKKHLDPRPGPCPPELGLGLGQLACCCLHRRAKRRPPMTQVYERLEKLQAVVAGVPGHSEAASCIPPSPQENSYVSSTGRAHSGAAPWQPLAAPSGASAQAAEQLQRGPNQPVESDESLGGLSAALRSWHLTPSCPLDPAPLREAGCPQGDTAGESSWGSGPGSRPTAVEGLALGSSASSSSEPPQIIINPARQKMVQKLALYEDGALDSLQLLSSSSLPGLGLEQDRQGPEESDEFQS

Series 1
Target: Tyrosine-protein kinase SYK (SYK, Homo sapiens, UniProt P43405)
Observed: enzyme activity
Mode: inhibitor
Tested at: 0.5 µM
Baseline: control
| Structure (SMILES) | remaining activity |
| --- | --- |
| CCN(CC)CCNC(=O)c1c(C)[nH]c(/C=C2\C(=O)Nc3ccc(Cl)cc32)c1C | 59.2% |
| O=C(NC(NC(=S)Nc1ccc(F)c([N+](=O)[O-])c1)C(Cl)(Cl)Cl)C(c1ccccc1)c1ccccc1 (stereo not drawn) | 104% |
| COc1cc2ncnc(Nc3cccc(Cl)c3)c2cc1OC | 86.9% |
| O=C(Nc1cccc(Nc2nccc(Nc3cccc(C(F)(F)F)c3)n2)c1)C1CC1 | 101% |
| CCOc1nc(NC(=O)Cc2cc(OC)ccc2OC)cc(N)c1C#N | 99.2% |
| c1ccc(-c2cnc(Nc3ccc(OCCN4CCCC4)cc3)s2)cc1 | 89.2% |
| O=c1cc(-c2cccc3c2Sc2ccccc2S3)oc(N2CCOCC2)c1 | 106% |
| Cn1nc2c3c(cccc31)C(=O)c1ccccc1-2 | 94.8% |
| Cc1cc2ncc(-c3ccccc3)nc2cc1C | 97.4% |
| CCN(CC)C(=O)c1ccc(Nc2nc(OCC3CCCCC3)c3[nH]cnc3n2)cc1 | 61.1% |
| Nc1cccc(-c2cc3c(Oc4cccc(O)c4)ncnc3[nH]2)c1 | 36.1% |

Series 2
Species: mouse
Medium: microsomes or S9
Tested at: 2 µM
Time: 0.5 h
| Structure (SMILES) | remaining compound |
| --- | --- |
| O=C(CN(CCc1ccccc1)S(=O)(=O)c1ccc(Cl)cc1)Nc1ccc2c(c1)OCCO2 | 2.39% |
| CC(=O)Oc1cc(OC(C)=O)c2c(c1)-c1coc3cc(OC(C)=O)cc(c13)C2=O | 0.0112% |
| COc1cc(OC)c(OC)cc1CNC(C)(C)CC(C)(C)C | 25.7% |
| O=C(COc1ccccc1F)NC[C@H]1CC[C@H](c2ncc(Cl)cc2-c2ccncc2)CC1 | 0.195% |
| Nc1c(-c2nc(-c3cccc(Br)c3)cs2)nnn1-c1ccc(F)cc1F | 9.3% |
| CCCOCC1CC(n2cncn2)C(c2ccc(Cl)cc2)=NO1 (stereo not drawn) | 19.5% |
| CC(C)CN1C(=O)CCC[C@]12CN(Cc1ccnc(N3CCCC3)n1)C[C@H]2c1ccccc1 | 0.0168% |

Series 3
Cell line: A-375
Tested at: 100 µM
Time: 36 h
| SMILES | viability [%] |
| --- | --- |
| CC(=O)OC(C)C(C)C(=O)OC[C@@]12[C@H]3C[C@]4(C)C(=CC[C@@H]5[C@@]6(C)CC[C@H](O[C@@H]7O[C@H](C(=O)O)[C@@H](O[C@@H]8O[C@H](CO)[C@@H](O)[C@H](O)[C@H]8O)[C@H](O)[C@H]7O[C@@H]7OC[C@@H](O)[C@H](O)[C@H]7O)[C@@](C)(CO)[C@@H]6CC[C@]54C)[C@@H]1CC(C)(C)[C@H](O3)[C@@H]2O (stereo partly drawn) | 0.721 |
| CC1CNc2c(cccc2S(=O)(=O)N[C@@H](CCCNC(=N)N)C(=O)N2CC[C@@H](C)C[C@@H]2C(=O)O)C1 (stereo partly drawn) | 102 |
| CCC[C@H](N[C@@H](C)C(=O)N1[C@H](C(=O)O)C[C@@H]2CCCC[C@@H]21)C(=O)O | 98.1 |
| OC[C@H]1O[C@@H](c2ccc(F)c(Cc3cc4ccccc4s3)c2)[C@H](O)[C@@H](O)[C@@H]1O | 71.2 |
| CCCN(CCC)CCc1cccc2c1CC(=O)N2 | 102 |
| COc1ccccc1OCC(O)COC(N)=O (stereo not drawn) | 88.9 |
| NC(=O)N[C@@H](CCC(=O)O)C(=O)O | 110 |
| C[N+](C)(C)C[C@H](O)CC(=O)[O-] | 124 |
| COc1cc2c(cc1OC)[C@H]1CC(=O)[C@H](CC(C)C)CN1CC2 (racemic) | 63.1 |

Series 4
SMILES: CNC(=O)c1ccc(Nc2ncc(C(F)(F)F)c(NCc3nccnc3N(C)S(C)(=O)=O)n2)cc1
Observed: cell-free assay
Method: competition with immobilised ligand
Tested at: 0.1 µM
| target | remaining binding |
| --- | --- |
| Calcium/calmodulin-dependent protein kinase type IV (CAMK4, Homo sapiens, UniProt Q16566) | 100% |
| Serine/threonine-protein kinase WNK4 (WNK4, Homo sapiens, UniProt Q96J92) | 81% |
| MAP kinase-activated protein kinase 2 (MAPKAPK2, Homo sapiens, UniProt P49137) | 100% |
| Dual specificity protein kinase CLK3 (CLK3, Homo sapiens, UniProt P49761) | 97% |
| Tyrosine-protein kinase JAK1, JH2 (JAK1, Homo sapiens, UniProt P23458) | 29% |
| Homeodomain-interacting protein kinase 3 (HIPK3, Homo sapiens, UniProt Q9H422) | 47% |
| Cyclin-dependent kinase 14 (CDK14, Homo sapiens, UniProt O94921) | 88% |
| Mitogen-activated protein kinase 1 (MAPK1, Homo sapiens, UniProt P28482) | 76% |
| Ribosomal protein S6 kinase alpha-4, C-terminal kinase domain (RPS6KA4, Homo sapiens, UniProt O75676) | 57% |
| Serine/threonine-protein kinase Nek5 (NEK5, Homo sapiens, UniProt Q6P3R8) | 100% |
| Mitogen-activated protein kinase kinase kinase kinase 4 (MAP4K4, Homo sapiens, UniProt O95819) | 98% |
| Insulin receptor-related protein (INSRR, Homo sapiens, UniProt P14616) | 95% |
| Interleukin-1 receptor-associated kinase 1 (IRAK1, Homo sapiens, UniProt P51617) | 77% |
| Receptor-type tyrosine-protein kinase FLT3 (FLT3, Homo sapiens, UniProt P36888, K663Q) | 21% |
| Calcium/calmodulin-dependent protein kinase type 1G (CAMK1G, Homo sapiens, UniProt Q96NX5) | 89% |
| Mitogen-activated protein kinase kinase kinase 3 (MAP3K3, Homo sapiens, UniProt Q99759) | 81% |
| Macrophage colony-stimulating factor 1 receptor, autoinhibited (CSF1R, Homo sapiens, UniProt P07333) | 76% |
| Insulin receptor (INSR, Homo sapiens, UniProt P06213) | 91% |

Repeated from above (series 4):
| target | remaining binding |
| --- | --- |
| Calcium/calmodulin-dependent protein kinase type 1G (CAMK1G, Homo sapiens, UniProt Q96NX5) | 89% |
| Mitogen-activated protein kinase kinase kinase 3 (MAP3K3, Homo sapiens, UniProt Q99759) | 81% |
| MAP kinase-activated protein kinase 2 (MAPKAPK2, Homo sapiens, UniProt P49137) | 100% |
| Macrophage colony-stimulating factor 1 receptor, autoinhibited (CSF1R, Homo sapiens, UniProt P07333) | 76% |
